Assay results collected from several papers.
Numbers after ± are the reported error.
Sequence of UniProt P43403 (whole entry, looked up): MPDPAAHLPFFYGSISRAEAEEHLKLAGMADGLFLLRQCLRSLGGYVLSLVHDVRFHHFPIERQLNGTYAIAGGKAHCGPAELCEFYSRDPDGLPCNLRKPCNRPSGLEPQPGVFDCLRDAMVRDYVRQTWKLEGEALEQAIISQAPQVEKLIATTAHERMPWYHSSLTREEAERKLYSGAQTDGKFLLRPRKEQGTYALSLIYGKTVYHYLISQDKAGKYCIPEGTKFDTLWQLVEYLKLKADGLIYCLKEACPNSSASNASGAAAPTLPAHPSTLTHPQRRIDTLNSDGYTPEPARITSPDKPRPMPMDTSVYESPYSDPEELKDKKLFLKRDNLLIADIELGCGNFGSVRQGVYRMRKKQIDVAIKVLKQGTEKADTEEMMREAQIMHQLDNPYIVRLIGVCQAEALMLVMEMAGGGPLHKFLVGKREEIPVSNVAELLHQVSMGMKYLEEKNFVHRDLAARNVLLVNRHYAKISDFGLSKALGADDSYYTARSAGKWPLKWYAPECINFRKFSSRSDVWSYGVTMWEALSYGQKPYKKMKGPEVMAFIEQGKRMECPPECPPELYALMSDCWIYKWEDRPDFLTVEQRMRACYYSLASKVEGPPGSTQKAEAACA
Sequence of UniProt Q9Y5L0 (whole entry, looked up): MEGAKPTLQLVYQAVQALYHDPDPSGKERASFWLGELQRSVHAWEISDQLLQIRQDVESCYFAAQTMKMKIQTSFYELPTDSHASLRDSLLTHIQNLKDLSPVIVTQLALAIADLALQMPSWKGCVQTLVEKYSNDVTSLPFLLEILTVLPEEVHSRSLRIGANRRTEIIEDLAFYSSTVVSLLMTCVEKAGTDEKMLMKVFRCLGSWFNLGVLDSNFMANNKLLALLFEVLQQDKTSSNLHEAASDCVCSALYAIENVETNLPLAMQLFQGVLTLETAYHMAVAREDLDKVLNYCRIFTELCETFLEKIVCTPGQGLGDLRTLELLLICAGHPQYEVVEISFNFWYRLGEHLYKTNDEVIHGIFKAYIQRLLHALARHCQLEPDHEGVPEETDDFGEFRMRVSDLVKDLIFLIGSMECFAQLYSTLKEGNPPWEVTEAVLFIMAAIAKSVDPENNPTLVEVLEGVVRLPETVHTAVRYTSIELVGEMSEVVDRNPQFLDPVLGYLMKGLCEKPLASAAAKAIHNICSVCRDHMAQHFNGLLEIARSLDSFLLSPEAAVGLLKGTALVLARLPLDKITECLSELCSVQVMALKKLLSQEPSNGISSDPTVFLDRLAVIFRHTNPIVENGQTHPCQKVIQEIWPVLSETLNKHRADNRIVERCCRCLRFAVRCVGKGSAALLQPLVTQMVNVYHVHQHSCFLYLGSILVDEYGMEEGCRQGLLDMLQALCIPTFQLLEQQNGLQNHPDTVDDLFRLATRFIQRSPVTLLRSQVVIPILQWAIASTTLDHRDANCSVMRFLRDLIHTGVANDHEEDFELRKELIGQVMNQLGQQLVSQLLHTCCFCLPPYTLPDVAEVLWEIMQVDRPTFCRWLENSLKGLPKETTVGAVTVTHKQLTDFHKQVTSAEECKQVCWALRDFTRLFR
Sequence of UniProt P08510 (whole entry, unmodified, looked up): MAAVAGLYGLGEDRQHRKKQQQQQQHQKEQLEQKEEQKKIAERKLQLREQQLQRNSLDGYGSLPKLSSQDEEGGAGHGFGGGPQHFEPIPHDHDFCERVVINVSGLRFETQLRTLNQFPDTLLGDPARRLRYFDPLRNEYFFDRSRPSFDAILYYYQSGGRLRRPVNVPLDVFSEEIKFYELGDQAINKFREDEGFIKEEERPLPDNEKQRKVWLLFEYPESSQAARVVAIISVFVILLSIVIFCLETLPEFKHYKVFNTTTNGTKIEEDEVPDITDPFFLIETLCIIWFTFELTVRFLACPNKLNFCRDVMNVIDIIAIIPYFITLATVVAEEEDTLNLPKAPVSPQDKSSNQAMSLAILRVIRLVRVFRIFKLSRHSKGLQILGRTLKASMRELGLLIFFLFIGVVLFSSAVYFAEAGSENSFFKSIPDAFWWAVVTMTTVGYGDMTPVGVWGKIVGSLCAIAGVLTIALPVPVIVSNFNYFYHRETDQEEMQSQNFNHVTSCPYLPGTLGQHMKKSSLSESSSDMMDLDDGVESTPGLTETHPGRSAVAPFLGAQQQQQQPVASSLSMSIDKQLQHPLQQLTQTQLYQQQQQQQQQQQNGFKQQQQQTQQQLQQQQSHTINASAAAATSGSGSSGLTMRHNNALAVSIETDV
Sequence of UniProt P46108 (whole entry, looked up): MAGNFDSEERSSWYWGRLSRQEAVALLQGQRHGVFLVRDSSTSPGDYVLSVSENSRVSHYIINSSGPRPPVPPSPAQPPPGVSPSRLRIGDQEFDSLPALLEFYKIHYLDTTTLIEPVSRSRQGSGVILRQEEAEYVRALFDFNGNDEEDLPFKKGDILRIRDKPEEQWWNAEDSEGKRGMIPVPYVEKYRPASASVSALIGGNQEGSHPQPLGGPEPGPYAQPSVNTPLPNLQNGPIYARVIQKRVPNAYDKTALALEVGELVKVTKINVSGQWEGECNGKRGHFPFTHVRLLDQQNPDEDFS
Sequence of UniProt P00512 (whole entry, looked up): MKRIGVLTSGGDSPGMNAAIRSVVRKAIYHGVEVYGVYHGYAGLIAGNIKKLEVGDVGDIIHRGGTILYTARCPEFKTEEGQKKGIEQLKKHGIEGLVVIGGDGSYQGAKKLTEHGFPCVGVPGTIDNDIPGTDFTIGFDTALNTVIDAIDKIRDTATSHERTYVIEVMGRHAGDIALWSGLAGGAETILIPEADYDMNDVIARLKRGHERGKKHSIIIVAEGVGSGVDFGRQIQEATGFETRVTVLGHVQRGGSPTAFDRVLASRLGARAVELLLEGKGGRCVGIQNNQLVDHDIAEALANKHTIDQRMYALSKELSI
Sequence of UniProt Q14145 (whole entry, looked up): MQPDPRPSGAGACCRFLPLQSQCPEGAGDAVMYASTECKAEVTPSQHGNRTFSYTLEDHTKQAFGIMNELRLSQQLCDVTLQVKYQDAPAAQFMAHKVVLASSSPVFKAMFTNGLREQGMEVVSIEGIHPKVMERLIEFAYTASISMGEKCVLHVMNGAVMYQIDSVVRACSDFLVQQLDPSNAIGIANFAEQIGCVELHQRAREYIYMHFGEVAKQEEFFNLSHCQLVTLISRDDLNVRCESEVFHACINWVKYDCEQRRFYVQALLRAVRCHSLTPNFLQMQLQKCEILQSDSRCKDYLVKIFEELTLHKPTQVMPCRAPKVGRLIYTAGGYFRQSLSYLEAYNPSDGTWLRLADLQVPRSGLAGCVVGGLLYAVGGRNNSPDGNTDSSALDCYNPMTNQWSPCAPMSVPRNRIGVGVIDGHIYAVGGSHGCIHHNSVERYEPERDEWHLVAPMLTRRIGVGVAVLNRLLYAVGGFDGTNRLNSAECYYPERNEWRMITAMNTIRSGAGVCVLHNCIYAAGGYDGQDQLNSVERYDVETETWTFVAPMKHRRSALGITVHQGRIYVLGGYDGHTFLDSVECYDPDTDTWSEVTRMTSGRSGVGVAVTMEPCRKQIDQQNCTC

SMILES = CSCC[C@H](NC(=O)[C@H](CCC(N)=O)NC(=O)[C@H](CC(C)C)NC(=O)[C@H](CO)NC(=O)[C@H](CCC(N)=O)NC(=O)[C@H](CC(C)C)NC(=O)[C@H](CCC(=O)O)NC(=O)CNC(=O)[C@@H](NC(=O)[C@H](CO)NC(=O)[C@@H]1CCCN1C(=O)[C@H](CC(=O)O)NC(=O)[C@@H](NC(=O)[C@H](CCC(=O)O)NC(=O)[C@H](CCCCN)NC(=O)[C@H](CO)NC(=O)[C@H](CO)NC(=O)[C@H](CC(C)C)NC(C)=O)C(C)C)[C@@H](C)O)C(=O)N1CCC[C@H]1C(=O)N[C@@H](CCC(=O)O)C(N)=O; tested on = Kelch-like ECH-associated protein 1, Kelch domain (KEAP1, Homo sapiens, UniProt Q14145); assay = binding to Kelch domain, isothermal titration calorimetry; conditions = pH 7, 25 °C; measurement = Kd; value = 1.7 ± 0.04 µM
SMILES = CC[C@H](C)[C@H](NC(=O)[C@H](Cc1ccccc1)NC(=O)[C@H](CCC(=O)O)NC(=O)[C@H](CCCNC(=N)N)NC(=O)[C@H](C)NC(=O)[C@H](C)NC(=O)[C@H](CCC(N)=O)NC(=O)[C@H](CCC(=O)O)NC(=O)[C@H](CCC(=O)O)NC(=O)[C@H](CC(C)C)NC(=O)[C@H](Cc1ccc(O)cc1)NC(=O)[C@H](CO)NC(=O)[C@H](CO)NC(=O)[C@@H](NC(=O)[C@H](CC(=O)O)NC(=O)[C@H](CO)NC(=O)[C@@H](NC(=O)[C@H](Cc1ccccc1)NC(=O)[C@@H](NC(=O)CNC(=O)[C@H](CCC(=O)O)NC(=O)[C@H](C)NC(=O)CCc1c[nH]cn1)[C@@H](C)O)[C@@H](C)O)C(C)C)C(=O)N[C@@H](C)C(=O)N[C@@H](Cc1c[nH]c2ccccc12)C(=O)N[C@@H](CC(C)C)C(=O)N[C@H](C(=O)N[C@@H](CCCNC(=N)N)C(=O)NCC(=O)N[C@@H](CCCNC(=N)N)C(=O)N[C@@H](CCCCNC(=O)COCCOCCNC(=O)COCCOCCNC(=O)CC[C@H](NC(=O)CCCCCCCCCCCCCCCCC(=O)O)C(=O)O)C(=O)NCC(=O)NCC(=O)N[C@@H](CO)C(=O)N[C@@H](CCCCNc1c(NCCCCCN(O)C(=O)CCC(=O)NCCCCCN(O)C(=O)CCC(=O)NCCCCCN(O)C(C)=O)c(=O)c1=O)C(=O)O)C(C)C [zirconium-89 labelled]; assay = ex vivo gamma counting; test system = rat, knee; conditions = subcutaneous, 3 nmol/kg, 168 h, together with: [89Zr]-labelled peptide; measurement = tissue uptake; value = 0.22 %ID/g
SMILES = C=C(OP(=O)(O)O)C(=O)O; tested on = pfkA (Geobacillus stearothermophilus, UniProt P00512); measurement = Kd; value = 60 ± 4 µM
SMILES = COc1cc2c(Oc3ccc4[nH]c(C)cc4c3F)ccnc2cc1OCC1(N)CC1; test system = paediatric recurrent refractory sarcoma; conditions = 8 mg; measurement = grade 3 sinus bradycardia; value = 0%
SMILES = CSCC[C@H](NC(=O)CNC(=O)[C@H](Cc1ccccc1)NC(=O)[C@H](CC(=O)O)NC(=O)CNC(=O)c1ccc2c(c1)C(=O)OC21c2ccc(N(C)C)cc2Oc2cc(N(C)C)ccc21)C(=O)N[C@@H](CO)C(=O)N[C@@H](CCCNC(=N)N)C(=O)N[C@@H](CC(=O)O)C(=O)N[C@H](C(=O)N[C@@H](Cc1ccc(OP(=O)(O)O)cc1)C(=O)N[C@@H](CO)C(=O)N[C@H](C(=O)N[C@@H](CC(=O)O)C(=O)N[C@@H](Cc1ccc(O)cc1)C(=O)N[C@@H](Cc1ccc(O)cc1)C(=O)N[C@@H](CCCNC(=N)N)C(=O)N[C@H](C(=O)N[C@@H](CC(=O)O)C(=O)O)C(C)C)[C@@H](C)O)C(C)C; tested on = Adapter molecule crk, SH2 domain (Homo sapiens, UniProt P46108); assay = binding; measurement = Kd; value = 0.902 µM
SMILES = C[C@H]1CN(c2n[nH]c3nc(N[C@H]4CC[C@H](NS(=O)(=O)CCC(F)(F)F)CC4)ncc23)CCO1; tested on = Transportin-3 (Homo sapiens, UniProt Q9Y5L0); assay = Kinobeads competition, refers to: TNPO3; conditions = 20 µM, unit not given; how to read = reference: vehicle; measurement = remaining binding; value = 1.15
SMILES = CSCC[C@H](N)C(=O)N[C@@H](C)C(=O)N[C@@H](C)C(=O)N[C@H](C(=O)N[C@@H](C)C(=O)NCC(=O)N[C@@H](CC(C)C)C(=O)N[C@@H](Cc1ccc(O)cc1)C(=O)NCC(=O)N[C@@H](CC(C)C)C(=O)NCC(=O)N[C@@H](CCC(=O)O)C(=O)N[C@@H](CC(=O)O)C(=O)N[C@@H](CCCNC(=N)N)C(=O)N[C@@H](CCC(N)=O)C(=O)N[C@@H](Cc1c[nH]cn1)C(=O)N[C@@H](CCCNC(=N)N)C(=O)N[C@@H](CCCCN)C(=O)N[C@@H](CCCCN)C(=O)N[C@@H](CCC(N)=O)C(N)=O)C(C)C; tested on = Sh, DEL6-46 (Drosophila melanogaster, UniProt P08510); assay = ion current, blocker, inside-out patch clamp; test system = Xenopus oocytes; conditions = range over 1 µM, pH 7.0, 22–24 °C, at 0 mV; measurement = Kd; value = 3.2 µM
SMILES = Nc1ncnc2c1ncn2[C@@H]1O[C@H](COP(=O)(O)OP(=O)(O)O)[C@@H](O)[C@H]1O; tested on = Cell cycle histidine kinase CckA, cytoplasmic region (Caulobacter vibrioides, UniProt Q9X688); assay = binding, kinetic model fit; conditions = second binding constant, together with: saturating c-di-GMP; measurement = Kd; value = 0.3 µM
SMILES = CC[C@H](C)[C@H](NC(=O)[C@H](CCCNC(=N)N)NC(=O)CNC(=O)[C@H](Cc1c[nH]c2ccccc12)NC(=O)[C@@H]1CSC[C@@H](NC(=O)[C@H](Cc2ccc(O)cc2)NC(=O)[C@H](Cc2c[nH]c3ccccc23)NC(=O)[C@H](CC(C)C)NC(=O)CNC(=O)[C@H](CCCNC(=N)N)NC(=O)c2ccc3c(c2)C(=O)OC32c3ccc(O)cc3Oc3cc(O)ccc32)C(=O)N[C@@H](CC(C)C)C(=O)N[C@@H]([C@@H](C)O)C(=O)N1)C(=O)NCC(=O)N[C@@H](CCCNC(=N)N)C(=O)N[C@@H](CCCNC(=N)N)C(=O)NCCCOCCOCCOCCCNC(=O)CCC(=O)NCCCOCCOCCOCCCNC(=O)CCC(=O)NCCCOCCOCCOCCCNC(=O)CCC(=O)N[C@@H](C)C(=O)O; tested on = srtA (Staphylococcus aureus, UniProt Q2FV99); assay = binding, fluorescence polarization; conditions = pH 7.5; measurement = Kd; value = 32.4 ± 2.5 µM
SMILES = Cn1c2cccc(=O)c-2nc2ccccc21; tested on = TetR-family regulator NalD (Pseudomonas aeruginosa, UniProt Q9HY46); assay = microscale thermophoresis; measurement = Kd; value = 31.7 µM
SMILES = COc1cc(Nc2ncc(F)c(Nc3ccc4c(n3)NC(=O)C(C)(C)O4)n2)cc(OC)c1OC; tested on = HRH4 (Homo sapiens, UniProt Q9H3N8); measurement = IC50; value = > 10 µM
SMILES = CC(C)C[C@H](NC(=O)[C@H](Cc1ccc(OP(=O)(O)O)cc1)NC(=O)[C@H](CCC(=O)O)NC(=O)[C@@H]1CCCN1C(=O)[C@H](CC(N)=O)NC(=O)CNC(=O)[C@@H](NC(=O)[C@H](C)NC(=O)[C@@H](NC(=O)[C@H](CO)NC(=O)[C@H](Cc1c[nH]cn1)NC(=O)c1ccc2c(c1)C(=O)OC21c2ccc(N(C)C)cc2Oc2cc(N(C)C)ccc21)[C@@H](C)O)C(C)C)C(=O)N[C@@H](CC(N)=O)C(=O)N[C@H](C(=O)N[C@H](C(=O)N[C@@H](CCC(N)=O)C(=O)N1CCC[C@H]1C(=O)N[C@H](C(=O)N[C@@H](CC(=O)O)C(=O)O)[C@@H](C)O)C(C)C)[C@@H](C)O; tested on = Tyrosine-protein kinase ZAP-70, SH2 domains (ZAP70, Homo sapiens, UniProt P43403); assay = binding; measurement = Kd; value = 1.14 µM
SMILES = C[N+](C)(C)[C@@H](Cc1c[nH]c(=S)[nH]1)C(=O)[O-]; tested on = egtUBC (Streptococcus pneumoniae, UniProt A0A0H2ZQB9, K242S); assay = binding; measurement = Kd; value = > 100 µM

Excerpt of the above:
SMILES = CSCC[C@H](NC(=O)[C@H](CCC(N)=O)NC(=O)[C@H](CC(C)C)NC(=O)[C@H](CO)NC(=O)[C@H](CCC(N)=O)NC(=O)[C@H](CC(C)C)NC(=O)[C@H](CCC(=O)O)NC(=O)CNC(=O)[C@@H](NC(=O)[C@H](CO)NC(=O)[C@@H]1CCCN1C(=O)[C@H](CC(=O)O)NC(=O)[C@@H](NC(=O)[C@H](CCC(=O)O)NC(=O)[C@H](CCCCN)NC(=O)[C@H](CO)NC(=O)[C@H](CO)NC(=O)[C@H](CC(C)C)NC(C)=O)C(C)C)[C@@H](C)O)C(=O)N1CCC[C@H]1C(=O)N[C@@H](CCC(=O)O)C(N)=O; tested on = Kelch-like ECH-associated protein 1, Kelch domain (KEAP1, Homo sapiens, UniProt Q14145); assay = binding to Kelch domain, isothermal titration calorimetry; conditions = pH 7, 25 °C; measurement = Kd; value = 1.7 ± 0.04 µM
